{"data": "Published values collected from several papers", "cell line": "MCF7", "note": "Each line is one published result; not all experiments were run side by side. Numbers after ± are the reported error."}
{"Compound": "COc1ccc(-c2nnc(-c3cc(-c4ccccc4)n(-c4ccc(S(N)(=O)=O)cc4)n3)o2)cc1", "test": "real-time PCR, measured: caspase-7", "conditions": "concentration not given", "how to read": "baseline: untreated cells", "endpoint": "mRNA level", "result": "4.8 fold"}
{"Compound": "C[n+]1c(/C=C/c2ccc(N(c3ccccc3)c3ccccc3)cc2)cc(/C=C2\\Sc3ccccc3N2CCCN2CCCC2)c2ccccc21", "test": "qRT-PCR, measured: hTERC", "conditions": "concentration not given, 36 h", "endpoint": "mRNA level", "result": "decreased"}
{"Compound": "NS(=O)(=O)c1ccc(/N=N/c2ccc(O)c(C=O)c2)cc1", "test": "MTT", "conditions": "72 h", "how to read": "baseline: MCF10A IC50 over MCF7 IC50", "endpoint": "selectivity index", "result": 3.47}
{"Compound": "CC1(C)CC2C3=CCC4C5(C)CCC(O)C(C)(CO)C5CCC4(C)C3(C)CC(O)C2(CO)C(O)C1O (stereo not drawn)", "test": "CCK-8", "conditions": "up to 80 µM", "endpoint": "growth inhibition", "result": "inactive"}
{"Compound": "CC(=C(c1ccc(O)cc1)c1ccc(Cl)cc1)c1ccc(Cl)cc1", "test": "cell growth or viability", "conditions": "10 µM", "endpoint": "inhibition", "result": "≥ 100%"}
{"Compound": "COc1cccc2c1C(=O)c1c(O)c3c(c(O)c1C2=O)CC(O)(C(=O)CO)CC3OC1CC(NC(=O)CCC2=C(C)C(=O)C=C(C(C)C)C2=O)C(O)C(C)O1 (stereo not drawn)", "conditions": "10 µM, 4 h", "how to read": "baseline: free doxorubicin", "endpoint": "ROS production", "result": "decreased"}
{"Compound": "CN1CCN(c2ccc(C(=O)/C=C/Nc3ccc(S(N)(=O)=O)cc3)cc2)CC1", "test": "PI flow cytometry", "conditions": "IC50 concentration, 24 h", "endpoint": "cells in %G0–G1 phase", "result": "51.4%"}
{"Compound": "CN(C)c1cccc2c(S(=O)(=O)NCCCCCC(=O)NO)cccc12", "test": "cell cycle, propidium iodide flow cytometry", "conditions": "1 µM", "endpoint": "cells in G1 phase", "result": "75.8%"}
{"Compound": "COc1ccc(-c2noc(NC(=O)c3ccc(F)c(C(F)(F)F)c3)c2C#N)c(OC)c1", "test": "ELISA", "conditions": "10 µM", "endpoint": "Hsp90 protein level", "result": "1.56 ng/mL"}
{"Compound": "CC1=[N+]2N=C(c3ccccc3)[O][Pd-2]2([Cl])[O+]=C2Oc3ccccc3C=C21 (stereo not drawn)", "test": "cytotoxicity, MTT", "conditions": "48 h", "how to read": "baseline: WI-38 over MCF7 IC50", "endpoint": "selectivity index", "result": 3.37}
{"Compound": "CC(C)(C)c1cc2c(O)c(c1)Cc1cc(C(C)(C)C)cc(c1OCC(=O)Nc1cncc3ccccc13)Cc1cc(C(C)(C)C)cc(c1O)Cc1cc(C(C)(C)C)cc(c1OCC(=O)Nc1cncc3ccccc13)COC2", "test": "annexin V-FITC/PI flow cytometry", "conditions": "10 µM, 24 h", "endpoint": "apoptotic cells", "result": "46.6 ± 1.25%"}
{"Compound": "COc1ccc(NC(=O)CCc2nc3cc(Cl)ccc3[nH]c2=O)cc1", "conditions": "concentration not given", "endpoint": "active p53 level", "result": "346 ± 7.44 pg/mL"}
{"Compound": "CC(=NNC(=S)NN=C(C(=NO)c1ccccc1)c1ccccc1)c1ccccc1", "test": "Western blot, measured: cleaved caspase-3", "conditions": "IC50 concentration, 24 h", "how to read": "baseline: untreated", "endpoint": "relative protein level", "result": "2.11 ± 0.06"}
{"Compound": "N.N.O=C(CCCc1ccccc1)[O][Pt]([Cl])([Cl])[O]C(=O)CCCc1ccccc1", "test": "GF-AAS", "conditions": "5 µM, 24 h", "how to read": "baseline: cellular platinum", "endpoint": "DNA-bound platinum", "result": "16%"}
{"Compound": "CC(Cc1ccc(Cl)cc1)=C(c1ccc(Cl)cc1)c1ccc(OCCN2CCOCC2)cc1", "test": "cell growth or viability", "conditions": "10 µM", "endpoint": "inhibition", "result": "0.5%"}
{"Compound": "FC(F)(F)c1cnc2[nH]cc(Cc3ccc(OCc4ccccc4)cc3)c2c1", "test": "cell growth or viability", "conditions": "10 µM, 72 h", "endpoint": "inhibition", "result": "32%"}
{"Compound": "O=C1c2ccccc2C(=O)c2c1ccc1c2C(C(=O)Nc2ccccc2Cl)C(=O)C1c1ccccc1 (stereo not drawn)", "test": "cell growth or viability", "endpoint": "TGI", "result": "24.6 µM"}
{"Compound": "N=C(N)NCCC[C@H](NC(=O)[C@H](Cc1c[nH]c2ccccc12)NC(=O)[C@H](CCC(N)=O)NC(=O)[C@H](Cc1c[nH]c2ccccc12)NC(=O)[C@H](CCCNC(=N)N)NC(=O)[C@H](Cc1c[nH]c2ccccc12)NC(=O)[C@H](CCC(N)=O)NC(=O)[C@H](Cc1c[nH]c2ccccc12)NC(=O)[C@@H](N)CCCNC(=N)N)C(N)=O", "how to read": "baseline: fibroblast IC50 over MCF7 IC50", "endpoint": "selectivity ratio", "result": "> 1.7"}
{"note": "For quick reference, copied from above:"}
{"Compound": "CC1=[N+]2N=C(c3ccccc3)[O][Pd-2]2([Cl])[O+]=C2Oc3ccccc3C=C21 (stereo not drawn)", "test": "cytotoxicity, MTT", "conditions": "48 h", "how to read": "baseline: WI-38 over MCF7 IC50", "endpoint": "selectivity index", "result": 3.37}
{"Compound": "CC(C)(C)c1cc2c(O)c(c1)Cc1cc(C(C)(C)C)cc(c1OCC(=O)Nc1cncc3ccccc13)Cc1cc(C(C)(C)C)cc(c1O)Cc1cc(C(C)(C)C)cc(c1OCC(=O)Nc1cncc3ccccc13)COC2", "test": "annexin V-FITC/PI flow cytometry", "conditions": "10 µM, 24 h", "endpoint": "apoptotic cells", "result": "46.6 ± 1.25%"}
